Measured values collected from several papers.
Lines come from different studies, so protocols differ. “And” joins repeats or separate records; there may be more than shown. Numbers after ± are the reported error.
4'-phosphopantetheinyl transferase PptT: 4'-phosphopantetheinyl transferase PptT (Mycobacterium tuberculosis, UniProt O33336)
UniProt O33336, sequence (whole entry, looked up): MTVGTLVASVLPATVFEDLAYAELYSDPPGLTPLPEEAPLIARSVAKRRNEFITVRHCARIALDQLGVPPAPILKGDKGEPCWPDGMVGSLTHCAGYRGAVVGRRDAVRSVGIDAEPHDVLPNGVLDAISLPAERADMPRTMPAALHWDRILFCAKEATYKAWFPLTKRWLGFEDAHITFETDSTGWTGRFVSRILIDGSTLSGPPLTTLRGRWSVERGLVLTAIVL
USP14: Ubiquitin carboxyl-terminal hydrolase 14 (USP14, Homo sapiens, UniProt P54578)
UniProt P54578, sequence (whole entry, looked up): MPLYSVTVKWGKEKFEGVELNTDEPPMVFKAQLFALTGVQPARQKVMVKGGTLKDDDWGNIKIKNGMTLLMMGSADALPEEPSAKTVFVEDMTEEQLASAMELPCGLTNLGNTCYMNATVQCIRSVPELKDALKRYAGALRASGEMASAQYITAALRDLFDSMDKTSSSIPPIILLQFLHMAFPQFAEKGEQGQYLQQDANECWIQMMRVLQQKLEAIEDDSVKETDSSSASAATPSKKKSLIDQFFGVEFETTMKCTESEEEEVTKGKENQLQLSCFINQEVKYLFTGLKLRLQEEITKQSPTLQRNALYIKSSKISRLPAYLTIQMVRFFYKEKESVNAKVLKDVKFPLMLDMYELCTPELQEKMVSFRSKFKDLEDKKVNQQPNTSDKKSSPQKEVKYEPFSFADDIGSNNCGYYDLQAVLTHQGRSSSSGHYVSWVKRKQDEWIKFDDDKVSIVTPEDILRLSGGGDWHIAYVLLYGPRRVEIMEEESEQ
EPHA3: Ephrin type-A receptor 3 (EPHA3, Homo sapiens, UniProt P29320)
UniProt P29320, sequence (whole entry, looked up): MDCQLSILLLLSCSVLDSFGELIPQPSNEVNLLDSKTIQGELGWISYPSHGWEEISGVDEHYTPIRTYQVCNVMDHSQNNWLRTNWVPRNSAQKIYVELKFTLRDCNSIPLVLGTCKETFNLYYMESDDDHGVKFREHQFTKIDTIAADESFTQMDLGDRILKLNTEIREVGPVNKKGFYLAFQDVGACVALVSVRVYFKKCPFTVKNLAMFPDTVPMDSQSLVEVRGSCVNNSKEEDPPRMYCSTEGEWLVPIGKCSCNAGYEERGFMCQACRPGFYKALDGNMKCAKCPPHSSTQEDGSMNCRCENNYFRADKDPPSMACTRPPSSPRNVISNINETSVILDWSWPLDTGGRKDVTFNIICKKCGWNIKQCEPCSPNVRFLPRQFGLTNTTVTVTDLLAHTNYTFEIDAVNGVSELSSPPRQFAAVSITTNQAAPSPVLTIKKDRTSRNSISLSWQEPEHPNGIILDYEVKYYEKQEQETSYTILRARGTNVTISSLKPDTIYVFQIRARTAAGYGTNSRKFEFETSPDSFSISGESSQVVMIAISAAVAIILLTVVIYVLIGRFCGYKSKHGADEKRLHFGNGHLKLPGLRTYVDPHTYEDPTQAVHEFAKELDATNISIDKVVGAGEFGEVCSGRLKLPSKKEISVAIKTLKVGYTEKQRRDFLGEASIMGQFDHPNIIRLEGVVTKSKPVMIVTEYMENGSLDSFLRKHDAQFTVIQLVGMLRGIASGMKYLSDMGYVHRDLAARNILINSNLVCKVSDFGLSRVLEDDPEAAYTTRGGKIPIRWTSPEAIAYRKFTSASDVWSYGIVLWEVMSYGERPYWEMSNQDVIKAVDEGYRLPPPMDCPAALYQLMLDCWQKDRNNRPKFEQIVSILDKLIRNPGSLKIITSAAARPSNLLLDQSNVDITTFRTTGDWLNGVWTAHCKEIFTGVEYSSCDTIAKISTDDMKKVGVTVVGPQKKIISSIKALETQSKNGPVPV
dppA: dppA (Mycobacterium tuberculosis, UniProt I6X811)
UniProt P21554, sequence (whole entry, unmodified, looked up): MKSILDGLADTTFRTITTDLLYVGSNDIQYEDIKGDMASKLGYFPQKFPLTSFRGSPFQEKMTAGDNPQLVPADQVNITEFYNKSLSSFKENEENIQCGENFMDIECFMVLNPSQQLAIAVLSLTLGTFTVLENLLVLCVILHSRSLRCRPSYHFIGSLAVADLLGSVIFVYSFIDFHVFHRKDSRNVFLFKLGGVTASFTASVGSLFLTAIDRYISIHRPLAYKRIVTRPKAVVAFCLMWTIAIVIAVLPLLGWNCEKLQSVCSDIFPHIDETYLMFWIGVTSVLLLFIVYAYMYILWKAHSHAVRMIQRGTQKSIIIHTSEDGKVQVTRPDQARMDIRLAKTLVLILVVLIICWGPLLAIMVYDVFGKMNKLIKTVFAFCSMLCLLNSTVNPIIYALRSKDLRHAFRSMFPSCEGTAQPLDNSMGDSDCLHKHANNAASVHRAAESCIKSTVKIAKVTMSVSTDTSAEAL
UniProt Q12851, sequence (whole entry, looked up): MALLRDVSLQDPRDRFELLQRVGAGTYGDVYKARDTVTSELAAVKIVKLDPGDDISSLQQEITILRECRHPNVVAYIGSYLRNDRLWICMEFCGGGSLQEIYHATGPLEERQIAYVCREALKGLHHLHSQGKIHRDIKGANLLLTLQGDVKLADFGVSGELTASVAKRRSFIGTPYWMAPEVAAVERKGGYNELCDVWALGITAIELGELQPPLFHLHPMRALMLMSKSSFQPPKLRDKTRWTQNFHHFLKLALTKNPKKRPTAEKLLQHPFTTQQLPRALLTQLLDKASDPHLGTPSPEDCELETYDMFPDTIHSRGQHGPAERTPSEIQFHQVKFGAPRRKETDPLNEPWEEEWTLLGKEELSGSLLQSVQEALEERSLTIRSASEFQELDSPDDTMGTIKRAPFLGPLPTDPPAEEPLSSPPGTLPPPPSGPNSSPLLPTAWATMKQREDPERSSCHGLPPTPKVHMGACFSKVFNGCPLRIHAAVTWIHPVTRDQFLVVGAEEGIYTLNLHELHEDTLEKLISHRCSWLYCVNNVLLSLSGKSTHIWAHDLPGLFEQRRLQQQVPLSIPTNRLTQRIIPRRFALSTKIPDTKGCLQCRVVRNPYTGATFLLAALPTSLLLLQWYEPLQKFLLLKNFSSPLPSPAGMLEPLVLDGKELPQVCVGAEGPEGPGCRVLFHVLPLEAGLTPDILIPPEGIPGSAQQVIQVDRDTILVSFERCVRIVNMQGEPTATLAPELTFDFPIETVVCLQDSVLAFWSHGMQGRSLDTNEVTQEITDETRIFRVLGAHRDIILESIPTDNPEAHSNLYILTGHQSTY
UniProt P41743, sequence (whole entry, looked up): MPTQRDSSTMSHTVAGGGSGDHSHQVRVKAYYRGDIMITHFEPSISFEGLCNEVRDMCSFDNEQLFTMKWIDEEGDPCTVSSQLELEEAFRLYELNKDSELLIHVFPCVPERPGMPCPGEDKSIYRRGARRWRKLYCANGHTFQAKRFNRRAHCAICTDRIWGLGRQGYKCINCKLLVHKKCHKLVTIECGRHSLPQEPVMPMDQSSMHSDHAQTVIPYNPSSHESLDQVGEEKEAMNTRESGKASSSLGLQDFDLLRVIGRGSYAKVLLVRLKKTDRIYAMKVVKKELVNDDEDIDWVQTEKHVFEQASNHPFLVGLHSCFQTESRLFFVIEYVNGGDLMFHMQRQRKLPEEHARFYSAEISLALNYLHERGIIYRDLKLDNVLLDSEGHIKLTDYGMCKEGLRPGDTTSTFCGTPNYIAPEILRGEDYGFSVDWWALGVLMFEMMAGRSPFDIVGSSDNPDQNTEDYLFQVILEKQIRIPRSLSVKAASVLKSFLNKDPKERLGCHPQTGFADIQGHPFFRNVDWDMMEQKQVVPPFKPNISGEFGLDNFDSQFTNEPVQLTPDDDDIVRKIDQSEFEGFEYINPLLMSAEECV
UniProt P55212, sequence (whole entry, looked up): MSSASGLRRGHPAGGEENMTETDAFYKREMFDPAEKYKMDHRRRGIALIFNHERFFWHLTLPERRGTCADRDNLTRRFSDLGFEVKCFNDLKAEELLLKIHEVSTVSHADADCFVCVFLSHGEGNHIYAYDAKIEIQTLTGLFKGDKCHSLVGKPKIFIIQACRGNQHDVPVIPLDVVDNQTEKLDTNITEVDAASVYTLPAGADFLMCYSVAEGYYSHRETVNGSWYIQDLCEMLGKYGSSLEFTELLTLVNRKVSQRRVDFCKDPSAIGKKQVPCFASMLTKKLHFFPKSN
UniProt P9WIA1, sequence (whole entry, looked up): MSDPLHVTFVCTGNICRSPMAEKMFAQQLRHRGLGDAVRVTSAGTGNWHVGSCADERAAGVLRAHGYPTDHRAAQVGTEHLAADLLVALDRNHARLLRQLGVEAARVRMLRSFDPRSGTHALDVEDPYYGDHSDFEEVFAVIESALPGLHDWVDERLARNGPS
UniProt P30989, sequence (whole entry, looked up): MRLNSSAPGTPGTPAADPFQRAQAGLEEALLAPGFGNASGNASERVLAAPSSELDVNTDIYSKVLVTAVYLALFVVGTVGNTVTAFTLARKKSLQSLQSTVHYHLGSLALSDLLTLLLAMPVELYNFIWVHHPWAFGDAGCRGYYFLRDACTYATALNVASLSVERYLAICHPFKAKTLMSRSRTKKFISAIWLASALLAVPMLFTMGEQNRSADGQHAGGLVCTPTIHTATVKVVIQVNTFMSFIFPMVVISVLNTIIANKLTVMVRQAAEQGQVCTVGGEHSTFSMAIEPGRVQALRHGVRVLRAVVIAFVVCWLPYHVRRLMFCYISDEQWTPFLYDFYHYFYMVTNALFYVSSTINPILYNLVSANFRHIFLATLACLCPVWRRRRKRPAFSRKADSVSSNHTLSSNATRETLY

C#CCN(Cc1ccc2nc(C)[nH]c(=O)c2c1)c1ccc(C(=O)NC(CCC(=O)O)C(=O)O)c(Cl)c1 (stereo not drawn) — Hill slope (4'-phosphopantetheinyl transferase PptT; enzyme activity, inhibitor, fluorescence polarisation): 1.2
Nc1ccc(/C=C/C(=O)N2CCc3c(oc4c(-c5ccc(F)cc5)cc(-c5ccc(C(=O)N6CCC(F)(F)CC6)cn5)cc34)C2)cn1 — remaining binding (DYRK1B (Homo sapiens, UniProt Q9Y463); binding, competition with immobilised ligand; 1 µM): 85%
CCOc1cc(C=C2C(=O)NC(=O)NC2=O)cc(Cl)c1O — inhibition (USP14; enzyme activity, inhibitor; 17 µM): 35%
Cc1cc(C(=O)Nc2nc3cccc(C)c3n2[C@H]2CCCCN(C(=O)/C=C/CN(C)C)C2)ccn1 — cell cycle distribution (Trypanosoma brucei; propidium iodide flow cytometry, refers to: Multi phase; bloodstream CLK1 over-expression induced; concentration not given): 12.2% and 17.1% and 9.2%
CCCCCn1cc(C(=O)c2cccc3c2CC(C)(C)C3)c2ccccc21 — Emax (CNR1 (Homo sapiens, UniProt P21554, F170A); Gαi1 engagement, agonist, BRET; baseline: reference agonist at wild-type CB1): 48.7 ± 3.8%
CS(C)(=O)=Nc1ccc(-c2ccc(-c3nc4cc(O[C@@H]5CO[C@H]6[C@@H]5OC[C@H]6O)[nH]c4cc3F)cc2)cc1 — inhibition (EPHA3; enzyme activity, inhibitor; 10 µM): -9%
CC[C@H](C)[C@H](NC(=O)[C@H](CO)NC(=O)[C@H](Cc1ccc(O)cc1)NC(=O)[C@H](Cc1ccc(O)cc1)NC(=O)[C@H](CC(N)=O)NC(=O)CNC(=O)[C@H](CO)NC(=O)[C@H](Cc1ccc(O)cc1)NC(=O)[C@H](CO)NC(=O)[C@H](CO)NC(=O)[C@H](CC(N)=O)NC(=O)COCCOCCNC(=O)CN1CCN(CC(=O)O)CCN(CC(=O)O)CCN(CC(=O)O)CC1)C(=O)N[C@@H](CC(C)C)C(N)=O [copper-64 labelled] — tissue uptake (dynamic PET; KPC mouse Ptf1a-CreER tdTomato, pancreas; intravenous, dose not given, 1.4 min, 84 d after tamoxifen): 13.8 %ID/mL
N[C@@H](CCC(=O)N[C@@H](CS[Se]Cc1ccc(C(=O)Nc2cc(C(F)(F)F)c(Br)c(C(F)(F)F)c2)cc1)C(=O)NCC(=O)O)C(=O)O — kinact/KI (Low molecular weight protein-tyrosine phosphatase A (Mycobacterium tuberculosis, UniProt P9WIA1); enzyme activity, inhibitor): 360000 M⁻¹ s⁻¹
C#CCN(Cc1ccc2nc(C)[nH]c(=O)c2c1)c1ccc(C(=O)NC(CCCC(=O)O)C(=O)O)cc1 (stereo not drawn) — Hill slope (4'-phosphopantetheinyl transferase PptT; enzyme activity, inhibitor, fluorescence polarisation): 1.2
CCCCCn1cc(C(=O)c2cccc3ccccc23)c2ccccc21 — Emax (CNR1 (Homo sapiens, UniProt P21554, F174A); Gαi1 engagement, agonist, BRET; baseline: reference agonist at wild-type CB1): 114 ± 2%
O=C1NC(=O)c2c1c1cc(F)c[n+]3c1c1c2c2cc(O)ccc2[n]1[Ru-4]312([N]=C=S)[S+]3CC[S+]1CC[S+]2CC3 (stereo not drawn) — remaining activity (MAP4K2 (Homo sapiens, UniProt Q12851); enzyme activity; 100 nM, human enzyme, together with: 10 µM ATP; baseline: untreated): 108%
Cc1ccc2c(C(C[N+](=O)[O-])c3cccs3)c(-c3ccccc3)[nH]c2c1 (stereo not drawn) — efficacy ratio (CNR1 (Homo sapiens, UniProt P21554, V249A); β-arrestin2 recruitment, NanoBiT; baseline: wild type): ~2.2 fold
C#CCN(Cc1ccc2nc(C)[nH]c(=O)c2c1)c1ccc(C(=O)N[C@@H](CSCCC(=O)O)C(=O)O)cc1 — Hill slope (4'-phosphopantetheinyl transferase PptT; enzyme activity, inhibitor, fluorescence polarisation): 1.5
COc1ccccc1C(C[N+](=O)[O-])c1c(-c2ccccc2)[nH]c2ccccc12 (stereo not drawn) — Emax (CNR1 (Homo sapiens, UniProt P21554, L387A); Gαi1-γ2 dissociation, BRET): 59.5 ± 3.43%
CC(C)CC(C(=O)N1CC2(CC1C#N)C(=O)Nc1ccccc12)N(C)C(=O)c1cc2c(F)cc(F)c(F)c2[nH]1 (stereo not drawn) — Hill slope (Caspase-6 (CASP6, Homo sapiens, UniProt P55212)): -1.64
CC[C@H](C)[C@@H]1NC(=O)CNC(=O)[C@@H]2Cc3c([nH]c4cc(O)ccc34)[S@+]([O-])C[C@H](NC(=O)CNC1=O)C(=O)N[C@@H](CC(N)=O)C(=O)N1C[C@H](O)C[C@H]1C(=O)N[C@@H]([C@@H](C)[C@@H](O)CO)C(=O)N2 — transcription activity (DNA-directed RNA polymerase II subunit RPB1 (Homo sapiens, UniProt P24928); HeLa nuclear extract; 30.00 nM, 60 min): 23 ± 3%
CC(C)C[C@H](NC(=O)[C@H](CC(C)C)NC(=O)[C@@H](N)CC(C)C)C(=O)O — kon (dppA; pH 7.4): 8.97 ± 7000 M⁻¹ s⁻¹
CN(C)[C@H]1C[C@@]23CC[C@@]4(O2)C(=CC[C@]2(C)[C@@H](c5ccc6ccncc6c5)CC[C@H]24)C=C3[C@@H](O)[C@@H]1O — inhibition (PRKCI (Homo sapiens, UniProt P41743); ATP probe labelling, inhibitor, KiNativ profiling; 0.1 µM): -13.5%
CC(C)[C@H](NC(=O)[C@@H](NC(=O)[C@@H](N)CC(=O)O)C(C)C)C(=O)O — kon (dppA; pH 7.4): 2.98 ± 2000 M⁻¹ s⁻¹
Cc1nc2ccc(CN(C)c3ccc(C(=O)NC(C(=O)O)C(C)CC(=O)O)cc3)cc2c(=O)[nH]1 (stereo not drawn) — Hill slope (4'-phosphopantetheinyl transferase PptT; enzyme activity, inhibitor, fluorescence polarisation): 1.2
Cc1sc2c(c1C)C(c1ccc(Cl)cc1)=NC(CC(=O)OC(C)(C)C)c1nnc(C)n1-2 (stereo not drawn) — inhibition (NTSR1 (Homo sapiens, UniProt P30989); ligand displacement, radioligand; 1 µM): -4%
C#CCN(Cc1ccc2nc(C)[nH]c(=O)c2c1)c1ccc(C(=O)NC(CCC(=O)O)C(=O)O)cc1 (stereo not drawn) — Hill slope (4'-phosphopantetheinyl transferase PptT; enzyme activity, inhibitor, fluorescence polarisation): 1.3
N[C@H](C(=O)N1CCCC1)C1CCN(c2nccc3c(-c4ncc(Cl)cc4Cl)cccc23)CC1 — inhibition (L-type calcium channel verapamil site; binding, radioligand binding; 10 µM): -5%
Cc1nc2ccc(CNc3ccc(C(=O)NC(CCC(=O)O)C(=O)O)cc3F)cc2c(=O)[nH]1 (stereo not drawn) — Hill slope (4'-phosphopantetheinyl transferase PptT; enzyme activity, inhibitor, fluorescence polarisation): 1.5
COc1ccccc1-c1n[nH]c2nc(NC3CCN(C(=O)Cc4ccc(F)cc4F)CC3)ncc12 — relative abundance (bead binding, competition bead pull-down, refers to: LINJ.30.3390; Leishmania donovani extract; 10 µM; baseline: vehicle): 1.32
O=[N+]([O-])CC(c1ccco1)c1c(-c2ccccc2)[nH]c2ccccc12 (stereo not drawn) — Emax (Cannabinoid receptor 1, with Gi2 (CNR1, Homo sapiens, UniProt P21554); Gi2 dissociation, agonist, BRET): 46.1 ± 3.13%
CC(C)(C)C(=O)OCOP(=O)(OCOC(=O)C(C)(C)C)C1CCCN(O)C1=O (stereo not drawn) — log GI50 (K562): -6.41 log M
COc1ccccc1-c1n[nH]c2nc(N[C@H]3CC[C@H](NS(=O)(=O)CC(C)C)CC3)ncc12 — relative abundance (bead binding, competition bead pull-down, refers to: LINJ.07.1150; Leishmania donovani extract; 10 µM; baseline: vehicle): 1.41
CC(C)[C@H]1NC(=O)C[C@H]2/C=C/CCSSC[C@@H](NC1=O)C(=O)N[C@H](Cc1cccc3ccccc13)C(=O)NCC(=O)O2 — inhibition (EPHA3; enzyme activity, inhibitor; 10 µM): -1.2%
CC(C)[C@H](NC(=O)[C@@H](N)CC(=O)O)C(=O)N[C@@H](CC(=O)O)C(=O)O — kon (dppA; pH 7.4): 2.25 ± 400 M⁻¹ s⁻¹
O=C1NC(=O)C(C2(O)C(=O)c3ccccc3C2=O)C(=O)N1 — inhibition (USP14; enzyme activity, inhibitor; 17 µM): 64%
CC(C)C[C@H](NC(=O)[C@H](CC(C)C)NC(=O)[C@H](CC(C)C)NC(=O)[C@@H](N)CC(C)C)C(=O)O — kon (dppA; pH 7.4): 4.26 ± 300 M⁻¹ s⁻¹
O=C1NC2(CC2)COc2ncc(F)cc2[C@H]2COCCN2c2ccn3ncc1c3n2 — pancreatic amylase activity (Sprague-Dawley rat, male, serum; oral, 20 mg/kg/day, 4 weeks daily, end of recovery period): 1980 ± 233 U/L

A few entries again:
CC(C)[C@H](NC(=O)[C@@H](N)CC(=O)O)C(=O)N[C@@H](CC(=O)O)C(=O)O — kon (dppA; pH 7.4): 2.25 ± 400 M⁻¹ s⁻¹
CC[C@H](C)[C@@H]1NC(=O)CNC(=O)[C@@H]2Cc3c([nH]c4cc(O)ccc34)[S@+]([O-])C[C@H](NC(=O)CNC1=O)C(=O)N[C@@H](CC(N)=O)C(=O)N1C[C@H](O)C[C@H]1C(=O)N[C@@H]([C@@H](C)[C@@H](O)CO)C(=O)N2 — transcription activity (DNA-directed RNA polymerase II subunit RPB1 (Homo sapiens, UniProt P24928); HeLa nuclear extract; 30.00 nM, 60 min): 23 ± 3%
